Results pooled from the literature.
± marks the error that the study gave.
CXCR4: C-X-C chemokine receptor type 4 (CXCR4, Homo sapiens, UniProt P61073)
Chain of UniProt P68400 (whole entry, looked up): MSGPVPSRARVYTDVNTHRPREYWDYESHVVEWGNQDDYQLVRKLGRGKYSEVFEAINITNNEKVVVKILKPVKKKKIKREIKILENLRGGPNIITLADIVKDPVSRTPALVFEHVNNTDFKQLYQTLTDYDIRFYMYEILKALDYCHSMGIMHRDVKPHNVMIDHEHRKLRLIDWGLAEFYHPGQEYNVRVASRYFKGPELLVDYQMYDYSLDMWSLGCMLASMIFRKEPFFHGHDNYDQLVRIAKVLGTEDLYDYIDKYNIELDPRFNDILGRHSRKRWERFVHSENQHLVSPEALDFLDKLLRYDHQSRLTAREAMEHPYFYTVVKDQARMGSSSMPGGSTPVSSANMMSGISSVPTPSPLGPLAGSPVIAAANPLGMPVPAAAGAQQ
Chain of UniProt P21761 (whole entry, looked up): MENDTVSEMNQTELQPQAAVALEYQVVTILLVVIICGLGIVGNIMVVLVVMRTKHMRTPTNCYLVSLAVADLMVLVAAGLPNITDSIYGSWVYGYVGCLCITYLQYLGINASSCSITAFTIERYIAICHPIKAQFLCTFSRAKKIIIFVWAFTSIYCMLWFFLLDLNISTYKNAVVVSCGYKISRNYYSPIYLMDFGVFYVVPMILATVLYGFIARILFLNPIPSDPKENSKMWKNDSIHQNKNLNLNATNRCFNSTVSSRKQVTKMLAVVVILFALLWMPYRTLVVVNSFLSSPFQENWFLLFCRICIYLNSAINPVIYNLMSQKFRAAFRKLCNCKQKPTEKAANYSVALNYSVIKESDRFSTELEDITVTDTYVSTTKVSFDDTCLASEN
Chain of UniProt Q8DPL8 (whole entry, looked up): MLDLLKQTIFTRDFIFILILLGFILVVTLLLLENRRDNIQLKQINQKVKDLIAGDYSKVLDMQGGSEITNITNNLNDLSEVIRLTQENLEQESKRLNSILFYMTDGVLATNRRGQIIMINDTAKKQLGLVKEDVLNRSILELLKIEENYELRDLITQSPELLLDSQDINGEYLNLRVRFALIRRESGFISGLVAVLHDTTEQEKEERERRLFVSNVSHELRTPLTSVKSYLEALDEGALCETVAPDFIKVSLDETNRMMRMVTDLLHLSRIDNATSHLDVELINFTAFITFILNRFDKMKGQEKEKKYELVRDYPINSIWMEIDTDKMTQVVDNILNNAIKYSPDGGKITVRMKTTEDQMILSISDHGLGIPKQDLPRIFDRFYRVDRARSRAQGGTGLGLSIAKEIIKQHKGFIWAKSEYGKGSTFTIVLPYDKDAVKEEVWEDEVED
Chain of UniProt P28907 (whole entry, looked up): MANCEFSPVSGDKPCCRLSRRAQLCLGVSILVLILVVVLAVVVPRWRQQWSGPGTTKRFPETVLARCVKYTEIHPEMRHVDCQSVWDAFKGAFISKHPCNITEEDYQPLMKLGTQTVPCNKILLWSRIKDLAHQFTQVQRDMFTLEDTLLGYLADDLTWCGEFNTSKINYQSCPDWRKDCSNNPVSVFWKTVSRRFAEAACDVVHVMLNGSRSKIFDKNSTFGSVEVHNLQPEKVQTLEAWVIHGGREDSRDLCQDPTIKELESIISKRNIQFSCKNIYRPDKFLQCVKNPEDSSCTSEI
Chain of UniProt Q9QXD6 (whole entry, looked up): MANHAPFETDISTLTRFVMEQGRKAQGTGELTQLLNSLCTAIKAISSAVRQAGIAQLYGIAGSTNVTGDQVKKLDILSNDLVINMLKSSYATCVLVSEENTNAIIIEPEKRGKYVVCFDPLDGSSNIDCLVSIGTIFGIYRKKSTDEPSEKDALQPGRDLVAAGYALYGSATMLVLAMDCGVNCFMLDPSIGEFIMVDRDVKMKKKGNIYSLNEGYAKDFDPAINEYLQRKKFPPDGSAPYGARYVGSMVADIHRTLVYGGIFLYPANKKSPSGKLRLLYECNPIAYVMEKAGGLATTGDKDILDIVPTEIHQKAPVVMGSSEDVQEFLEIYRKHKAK
Chain of UniProt P23219 (whole entry, looked up): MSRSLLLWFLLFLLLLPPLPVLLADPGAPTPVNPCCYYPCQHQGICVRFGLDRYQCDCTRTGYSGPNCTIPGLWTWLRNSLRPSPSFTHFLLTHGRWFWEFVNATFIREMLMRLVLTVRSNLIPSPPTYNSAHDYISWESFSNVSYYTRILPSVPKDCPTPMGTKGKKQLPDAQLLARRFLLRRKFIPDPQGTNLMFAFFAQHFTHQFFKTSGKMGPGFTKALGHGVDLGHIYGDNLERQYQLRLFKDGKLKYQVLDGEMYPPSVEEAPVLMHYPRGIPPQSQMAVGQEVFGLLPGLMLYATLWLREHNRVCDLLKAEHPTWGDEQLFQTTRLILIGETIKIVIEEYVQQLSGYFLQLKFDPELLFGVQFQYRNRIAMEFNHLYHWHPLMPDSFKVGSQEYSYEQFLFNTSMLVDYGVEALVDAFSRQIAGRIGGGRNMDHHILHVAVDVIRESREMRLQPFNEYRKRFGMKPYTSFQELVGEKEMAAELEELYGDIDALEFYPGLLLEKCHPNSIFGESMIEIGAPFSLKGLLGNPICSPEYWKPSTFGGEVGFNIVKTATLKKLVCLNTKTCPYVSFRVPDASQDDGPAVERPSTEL
Chain of UniProt Q6SZW1 (whole entry, unmodified, looked up): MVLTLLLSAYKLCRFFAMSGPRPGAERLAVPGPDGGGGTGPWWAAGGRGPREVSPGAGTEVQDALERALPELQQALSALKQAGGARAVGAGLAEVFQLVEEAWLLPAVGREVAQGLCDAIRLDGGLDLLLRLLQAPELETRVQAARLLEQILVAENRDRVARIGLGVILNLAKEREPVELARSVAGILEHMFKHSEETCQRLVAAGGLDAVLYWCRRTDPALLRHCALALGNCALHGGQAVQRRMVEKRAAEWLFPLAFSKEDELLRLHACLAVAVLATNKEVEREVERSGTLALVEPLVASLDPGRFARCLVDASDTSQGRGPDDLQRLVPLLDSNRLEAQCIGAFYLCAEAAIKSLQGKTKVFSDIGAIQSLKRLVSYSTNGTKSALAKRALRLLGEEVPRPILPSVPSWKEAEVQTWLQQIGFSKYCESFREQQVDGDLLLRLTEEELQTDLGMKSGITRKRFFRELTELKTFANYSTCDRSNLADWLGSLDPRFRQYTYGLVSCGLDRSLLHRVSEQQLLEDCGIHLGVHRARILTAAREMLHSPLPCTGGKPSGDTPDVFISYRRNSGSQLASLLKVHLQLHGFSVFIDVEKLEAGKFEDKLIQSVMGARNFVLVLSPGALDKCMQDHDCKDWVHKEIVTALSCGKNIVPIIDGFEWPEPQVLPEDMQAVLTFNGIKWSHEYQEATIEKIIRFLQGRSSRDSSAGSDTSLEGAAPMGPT
Chain of UniProt P30969 (whole entry, looked up): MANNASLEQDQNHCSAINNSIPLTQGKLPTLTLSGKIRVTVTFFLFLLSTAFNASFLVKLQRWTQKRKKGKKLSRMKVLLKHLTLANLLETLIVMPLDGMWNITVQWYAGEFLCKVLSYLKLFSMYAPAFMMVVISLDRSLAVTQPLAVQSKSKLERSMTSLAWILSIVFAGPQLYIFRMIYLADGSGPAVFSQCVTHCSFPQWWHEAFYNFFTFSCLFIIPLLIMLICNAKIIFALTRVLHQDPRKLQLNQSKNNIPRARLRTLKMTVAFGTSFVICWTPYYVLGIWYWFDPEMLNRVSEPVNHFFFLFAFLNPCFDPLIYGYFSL
Chain of UniProt P52699 (whole entry, looked up): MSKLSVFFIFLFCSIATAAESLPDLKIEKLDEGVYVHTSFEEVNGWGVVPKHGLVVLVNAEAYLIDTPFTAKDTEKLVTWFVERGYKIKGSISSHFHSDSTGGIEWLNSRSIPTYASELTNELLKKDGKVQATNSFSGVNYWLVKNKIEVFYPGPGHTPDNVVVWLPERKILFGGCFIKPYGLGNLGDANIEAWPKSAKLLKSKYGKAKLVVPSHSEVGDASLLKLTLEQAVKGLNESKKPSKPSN
Chain of UniProt Q96KS0 (whole entry, looked up): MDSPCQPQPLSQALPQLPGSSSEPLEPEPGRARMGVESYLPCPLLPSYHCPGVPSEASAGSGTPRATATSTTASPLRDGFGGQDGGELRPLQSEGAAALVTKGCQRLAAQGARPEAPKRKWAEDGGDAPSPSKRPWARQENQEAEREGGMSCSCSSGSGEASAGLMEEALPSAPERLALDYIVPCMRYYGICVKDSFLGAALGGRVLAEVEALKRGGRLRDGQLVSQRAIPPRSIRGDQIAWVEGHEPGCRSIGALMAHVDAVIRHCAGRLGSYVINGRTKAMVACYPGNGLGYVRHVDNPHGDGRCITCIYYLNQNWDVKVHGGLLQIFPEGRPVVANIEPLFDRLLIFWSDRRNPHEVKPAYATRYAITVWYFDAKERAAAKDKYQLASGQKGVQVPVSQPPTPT
Chain of UniProt P28571 (whole entry, looked up): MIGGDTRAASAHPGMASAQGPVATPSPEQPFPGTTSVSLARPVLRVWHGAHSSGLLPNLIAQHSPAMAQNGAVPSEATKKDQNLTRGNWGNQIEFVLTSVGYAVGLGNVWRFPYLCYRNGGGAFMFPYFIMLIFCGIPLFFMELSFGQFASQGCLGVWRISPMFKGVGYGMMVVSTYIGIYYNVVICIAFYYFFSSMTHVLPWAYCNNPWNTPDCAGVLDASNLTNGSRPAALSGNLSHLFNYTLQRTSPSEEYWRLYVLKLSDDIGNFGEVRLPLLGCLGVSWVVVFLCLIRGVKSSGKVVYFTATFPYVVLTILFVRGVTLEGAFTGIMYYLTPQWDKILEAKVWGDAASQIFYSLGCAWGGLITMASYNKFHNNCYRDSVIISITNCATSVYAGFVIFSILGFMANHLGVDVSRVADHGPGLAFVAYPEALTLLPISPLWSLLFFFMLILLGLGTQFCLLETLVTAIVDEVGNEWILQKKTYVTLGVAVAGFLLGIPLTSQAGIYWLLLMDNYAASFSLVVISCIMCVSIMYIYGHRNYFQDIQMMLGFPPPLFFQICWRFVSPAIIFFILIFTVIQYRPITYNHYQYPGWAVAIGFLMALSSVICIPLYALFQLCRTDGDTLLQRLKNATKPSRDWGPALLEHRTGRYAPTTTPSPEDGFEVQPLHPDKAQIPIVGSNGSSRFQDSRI

| Compound | tested on | assay | system | conditions | scale | endpoint | result |
| --- | --- | --- | --- | --- | --- | --- | --- |
| O=c1c(-c2cccnc2)c[nH]n1-c1ccc(CO)cn1 | EGLN2 (Homo sapiens, UniProt Q96KS0) | enzyme activity, inhibitor, europium VBC binding | – | 10 µM FeSO4, 2 mM ascorbate, added: 20 µM 2-oxoglutarate | – | IC50 | 0.86 µM |
| COc1ccc(S(=O)(=O)n2nc(OC(=O)c3cccc(-c4ccccc4)c3)cc2N)cc1 | Genome polyprotein, protease (West Nile virus, UniProt P06935) | enzyme activity, inhibitor, fluorescence | – | with preincubation | – | IC50 | 1.1 µM |
| O=C(c1ccc(Br)cc1)N1CCN(c2ccc(F)cc2)CC1 | SEC14 (Saccharomyces cerevisiae, UniProt P24280) | enzyme activity, inhibitor, radiometric | – | – | – | IC50 | 0.768 µM |
| CC1=CC(C)(C)N=C(Nc2nc(C)c3cc(C)cc(C)c3n2)N1 | CD38 (Homo sapiens, UniProt P28907) | cyclase activity, fluorometric | – | added: NGD+ substrate | – | IC50 | > 100 µM |
| CC(C)NCc1ccc(C[C@@H]2NC(=O)[C@@H](Cc3c[nH]c4ccccc34)NC(=O)[C@H](Cc3ccccc3)NC(=O)[C@H](N)CSSC[C@@H](C(=O)N[C@@H](Cc3ccc4ccccc4c3)C(N)=O)NC(=O)[C@H](Cc3ccc(O)c(I)c3)NC2=O)cc1 | SSTR3 (Homo sapiens, UniProt P32745) | ligand displacement, radioligand | – | cell membranes | – | IC50 | 0.438 µM |
| O=c1c2ccccc2ncn1-c1ccccc1F | MAPK14 (Homo sapiens, UniProt Q16539) | enzyme activity, inhibitor, fluorescence | – | – | – | IC50 | 520 µM |
| CNC(=O)C1CCN(c2ccccc2NC(=O)c2ccc(-c3cccc(O)c3)c(C)c2)CC1 | EPHB2 (Homo sapiens, UniProt P29323) | target engagement in cells, BRET | – | – | – | IC50 | 133 µM |
| O=C([O-])CN1CCN(CC(=O)[O-])CCN(CC(=O)NCCc2ccc3c(c2)C2C=CCC2C(c2cc4c(cc2Br)OCO4)N3)CCN(CC(=O)[O-])CC1.[111In+3] (centres unmarked) | Hec50 tumour model | – | host not given, blood | 30 min, tumour-bearing | – | tracer uptake | 3.94 %ID/g |
| COc1ccc(S(=O)(=O)NCc2c[nH]nc2-c2cccs2)cc1 | Myosin-7 (MYH7, Bos taurus, UniProt Q9BE39) | ATPase activity, inhibitor | – | – | – | IC50 | 10 µM |
| Cn1cnc(C[C@H](NC(=O)C2CCCCN2)C(=O)N2CCC[C@H]2C(N)=O)c1 (some centres unmarked) | Thyrotropin-releasing hormone receptor (Mus musculus, UniProt P21761) | ligand displacement, radioligand | – | – | – | IC50 | > 50 µM |
| CC(=O)N[C@H]1[C@@H](OC(=O)NCCCOCCOCCOCCCNC(=O)O[C@H]2O[C@H](CNC(=O)OCCOCCOCCOCCOCCOCCOCCOCCOCCOC(=O)NC[C@H]3O[C@H](OC(=O)NCCCOCCOCCOCCCNC(=O)O[C@H]4O[C@H](CO)[C@@H](O)[C@H](O)[C@H]4NC(C)=O)[C@H](NC(C)=O)[C@@H](O)[C@@H]3O)[C@@H](O)[C@H](O)[C@H]2NC(C)=O)O[C@H](CO)[C@@H](O)[C@@H]1O | wheat germ agglutinin (Triticum vulgaris) | binding to immobilised GlcNAc, inhibitor, enzyme-linked lectin | – | added: HRP-labelled WGA | – | IC50 | 0.035 µM |
| N=C(N)NCCC[C@@H]1NC(=O)[C@H](CCCCNC(=O)CNC(=O)CNC(=O)CNC(=O)CC[C@H](NC(=O)CNC(=O)CNC(=O)CNC(=O)CC[C@H](NC(=O)CN2CCN(CC(=O)O)CCN(CC(=O)O)CCN(CC(=O)O)CC2)C(=O)NCC(=O)NCC(=O)NCC(=O)N[C@@H](CCC(=O)NCC(=O)NCC(=O)NCC(=O)NCCCC[C@@H]2NC(=O)[C@@H](Cc3ccccc3)NC(=O)[C@H](CC(=O)O)NC(=O)CNC(=O)[C@H](CCCNC(=N)N)NC2=O)C(=O)NCC(=O)NCC(=O)NCC(=O)NCCCC[C@@H]2NC(=O)[C@@H](Cc3ccccc3)NC(=O)[C@H](CC(=O)O)NC(=O)CNC(=O)[C@H](CCCNC(=N)N)NC2=O)C(=O)NCC(=O)NCC(=O)NCC(=O)NCCCC[C@@H]2NC(=O)[C@@H](Cc3ccccc3)NC(=O)[C@H](CC(=O)O)NC(=O)CNC(=O)[C@H](CCCNC(=N)N)NC2=O)NC(=O)[C@@H](Cc2ccccc2)NC(=O)[C@H](CC(=O)O)NC(=O)CNC1=O [indium-111 labelled] | – | – | female athymic nu/nu mice, kidney | intravenous, 24 h | – | tissue uptake | 4.44 ± 0.45 %ID/g |
| COc1cc(/C=C/c2ccc(N)cc2)cc(OC)c1OC | PTGS1 (Homo sapiens, UniProt P23219) | enzyme activity, inhibitor | – | – | – | IC50 | 1.4 µM |
| CCn1c(-c2cc(NC(=O)c3cnccn3)n[nH]2)cc2ccccc21 | CSNK2A1 (Homo sapiens, UniProt P68400) | enzyme activity, inhibitor, ADP detection | – | – | – | IC50 | 49 µM |
| N#Cc1c(Nc2c(Cl)ccc3ncccc23)s[nH]c1=O | SARM1 (Homo sapiens, UniProt Q6SZW1, C649A) | enzyme activity, inhibitor | – | – | – | IC50 | 1.2 µM |
| Nc1ncnc2c1ncn2C1OC(COP(=O)(O)O)C(O)C1O (centres unmarked) | Fructose-1,6-bisphosphatase 1 (Mus musculus, UniProt Q9QXD6) | enzyme activity, inhibitor | – | His-tagged mouse wild type, added: fructose-1,6-bisphosphate 35 µM | – | IC50 | ~14 µM |
| COc1cc(CNC(=O)C[C@H](C)CCC=C(C)C)ccc1OCc1cn(-c2ccc(Cl)cc2Cl)nn1 | CAKI-1 | SRB | – | 10 µM, 48 h | – | growth percent | 31.8% |
| Cc1cc(O)cc(C)c1C[C@H](NC(=O)[C@@H]1CCCN1C(=O)[C@H](CCCNC(=N)N)NC(=O)[C@H](CCCNC(=N)N)N(C)C(=O)[C@@H]1CCCN1C(=O)[C@@H](CC(C)C)NC(=O)[C@@H](CC(C)C)NC(=O)[C@@H](CC(C)C)NC(=O)[C@@H](CC(C)C)NC(=O)[C@H](CCCCN)NC(=O)CN1CCN(CC(=O)O)CCN(CC(=O)O)CCN(CC(=O)O)CC1)C(=O)N[C@H](C(=O)N[C@@H](CC(C)C)C(=O)O)C(C)(C)C | NTSR1 (Homo sapiens, UniProt P30989) | ligand displacement, radioligand | – | pH 7.4 | – | IC50 | 0.0486 µM |
| COc1cc(OC)cc(C(=O)/C=C/c2ccc(N(C)CCO)cc2)c1 | Seed linoleate 13S-lipoxygenase-1 (Glycine max, UniProt P08170) | enzyme activity, inhibitor, absorbance | – | – | – | IC50 | 32.1 µM |

| Compound | tested on | assay | system | conditions | scale | endpoint | result |
| --- | --- | --- | --- | --- | --- | --- | --- |
| Nc1ncc(-c2cnn(C3CCNCC3)c2)cc1-c1nc2ccc(Cl)cc2o1 | JAK2 (Homo sapiens, UniProt O60674) | enzyme activity, inhibitor, TR-FRET | – | – | – | IC50 | 0.77 µM |
| C=CC(=O)Nc1cc(Nc2nccc(-c3cn(C)c4ccccc34)n2)c(OCC(F)(F)F)nc1N(C)CCN(C)C | CYP2C19 (Homo sapiens, UniProt P33261) | enzyme activity, inhibitor | human, liver microsomes | 0.1 µM | – | activity vs control | 94.6% |
| CN1CCCC[C@H]1[C@@H](NC(=O)c1nccc(C(F)(F)F)c1Cl)c1cccc(-c2cn[nH]c2)c1 | Slc6a9 (Mus musculus, UniProt P28571) | [3H]glycine uptake, inhibitor | mouse brain homogenate | – | – | IC50 | 0.005 µM |
| CCCC[C@H](NC(=O)CCCCCCCNC(=O)CN1CCN(CC(=O)O)CCN(CC(=O)O)CC1)C(=O)N[C@H]1CC(=O)NCCCC[C@@H](C(N)=O)NC(=O)[C@H](Cc2c[nH]c3ccccc23)NC(=O)[C@H](CCCNC(=N)N)NC(=O)[C@@H](Cc2ccccc2)NC(=O)[C@H](Cc2c[nH]cn2)NC1=O [copper-64 labelled] | – | – | C57 mice, spleen | intravenous, 0.37 MBq, 4 h | – | tissue uptake | 0.18 ± 0.09 %ID/g |
| Cc1ccc(-c2cc(C(=O)NCCCN3CCOCC3)c3cc(Cl)ccc3n2)o1 | TPR (Trypanosoma brucei brucei, UniProt P39051) | inhibitor, DTNB-coupled colourimetric | – | added: substrate at Km | – | IC50 | 11.6 µM |
| [64Cu+2].c1ccc(CNCc2ccc(CN3CCCN4CCNCCCN(CC4)CC3)cc2)nc1 | CXCR4 | – | NOD/SCID mice, U87 xenografts, U87-stb-CXCR4 tumour | 240 min post-injection | – | tissue uptake | 19.6 ± 5.55 %ID/g |
| COC(=O)C(CS)N1C(=O)c2cccc3c(N(C)C)ccc(c23)C1=O (centres unmarked) | Metallo-beta-lactamase type 2 (Serratia marcescens, UniProt P52699) | enzyme activity, inhibitor | – | pH 7.0, added: chromacef 25 µM | – | IC50 | 0.09 ± 0.01 µM |
| [64Cu+2].c1cnc(CNCc2ccc(CN3CCCN4CCNCCCN(CC4)CC3)cc2)nc1 | CXCR4 | – | NOD/SCID mice, U87 xenografts, U87-stb-CXCR4 tumour | 120 min post-injection | – | tissue uptake | 26 ± 4.53 %ID/g |
| CC(Oc1cc(-c2ccccc2)nc2ccncc12)C(=O)N(C)c1ccccc1 (centres unmarked) | human leukocytes | binding | – | – | baseline: LAB over HAB genotype | Ki ratio | 19 ± 9 |
| CC(C)N1CCn2cc(C(=O)NCc3ccc(F)cc3F)c(=O)c(O)c2C1=O | gag-pol/sso7d, integrase (Human immunodeficiency virus type 1 group M subtype B, UniProt P12497+P39476) | integrase strand transfer, inhibitor, concerted integration | HIV-1 | – | – | IC50 | 0.106 µM |
| CC(C)C[C@H](NC(=O)[C@@H](Cc1c[nH]c2ccccc12)NC(=O)[C@H](Cc1c[nH]cn1)NC(=O)[C@H](CO)NC(=O)[C@H](Cc1c[nH]c2ccccc12)NC(=O)[C@H](Cc1c[nH]cn1)NC(=O)[C@@H]1CCC(=O)N1)C(=O)N[C@@H](CCCNC(=N)N)C(=O)N1CCC[C@H]1C(=O)NCC(N)=O | Gonadotropin-releasing hormone receptor (Rattus norvegicus, UniProt P30969) | binding, radioligand displacement | WPE-1-NB26-3 expressing Gonadotropin-releasing hormone receptor, whole cells | added: radioiodinated GnRH analogue | – | IC50 | 0.0003 ± 0.0001 µM |
| Cc1ccc(CC(=O)N(CCCn2ccnc2)c2nc3ccccc3s2)c(C)c1 | CHD1L (Homo sapiens, UniProt Q86WJ1) | ATPase activity, inhibitor | – | 1 h, 37 °C, added: ATP 10 µM | – | IC50 | 4.61 µM |
| C=C(NC(=O)C(=C)NC(=O)c1csc(C2=NC3c4csc(n4)C4NC(=O)c5csc(n5)C(C(C)(O)C(C)O)NC(=O)C5CSC(=N5)C(=CC)NC(=O)C(C(C)O)NC(=O)c5csc(n5)C3(CC2)NC(=O)C(Cc2cnc[nH]2)NC(=O)C(=C)NC(=O)C(C)NC(=O)C(C(C)CC)NC2C=Cc3c(C(C)O)cc(nc3C2O)C(=O)OC4C)n1)C(N)=O (centres unmarked) | Proteasome subunit beta type-7, in 20S proteasome (PSMB7, Homo sapiens, UniProt Q99436) | trypsin-like activity, inhibitor | purified 20S proteasome | 15 min preincubation, 37 °C, added: Boc-Leu-Arg-Arg-AMC substrate | – | IC50 | 0.51 ± 0.09 µM |
| CC(=O)NCCN(CC(=O)NCCN(CC(=O)NCCN(CC(=O)NCCC(N)=O)C(=O)[C@@H](N)CCCNC(=N)N)C(=O)[C@@H](N)CCCNC(=N)N)C(=O)[C@@H](N)Cc1ccccc1 | HIV-1 TAR RNA | Tat/TAR complex displacement, FRET | – | room temperature, added: 10 nM Tat/TAR complex | – | IC50 | 3.8 ± 0.8 µM |
| c1ccc(CCNc2ncnc3[nH]cnc23)cc1 | Sensor histidine protein kinase/phosphatase WalK (walK, Streptococcus pneumoniae, UniProt Q8DPL8) | enzyme activity, ATP-competitive inhibitor | – | – | – | IC50 | 1310 µM |
| N#C/C(=C\c1cccc(C(N)=O)c1)C(N)=O | Ribosomal protein S6 kinase alpha-3, C-terminal kinase domain (RPS6KA3, Homo sapiens, UniProt P51812) | enzyme activity, inhibitor | – | 10 mM reduced glutathione, added: 0.1 mM ATP, peptide substrate | – | IC50 | 3.3 µM |
| Cc1cn([C@H]2C[C@H](O)[C@@H](COP(=O)(O)O)O2)c(=O)[nH]c1=O | Thymidylate kinase (DTYMK, Homo sapiens, UniProt P23919) | ligand displacement | – | – | – | IC50 | 4.6 µM |
| Cn1c(=O)oc2ccc(-c3ccc(CC(C#N)NC(=O)C4CNCCCO4)c(F)c3)cc21 (centres unmarked) | – | – | human | oral, 40 mg once daily, TEAE, multiple ascending dose | – | skin exfoliation incidence | 0% |
| COc1cc(-c2nc3ccc(C(=O)NCCCN4CCN(C(=O)c5ccccc5)CC4)cc3n2C2CCC2)cc(OC)c1OC | ACVR1 (Homo sapiens, UniProt Q04771) | target engagement in cells, BRET | – | – | – | IC50 | 1.08 µM |

Excerpt of the above:
| Compound | tested on | assay | system | conditions | scale | endpoint | result |
| --- | --- | --- | --- | --- | --- | --- | --- |
| N#Cc1c(Nc2c(Cl)ccc3ncccc23)s[nH]c1=O | SARM1 (Homo sapiens, UniProt Q6SZW1, C649A) | enzyme activity, inhibitor | – | – | – | IC50 | 1.2 µM |
| [64Cu+2].c1ccc(CNCc2ccc(CN3CCCN4CCNCCCN(CC4)CC3)cc2)nc1 | CXCR4 | – | NOD/SCID mice, U87 xenografts, U87-stb-CXCR4 tumour | 240 min post-injection | – | tissue uptake | 19.6 ± 5.55 %ID/g |
